Experimental data of several laboratories.
Parts stem from different laboratories: compare values within a part only.
Chain of UniProt Q9C0B0 (30-357, looked up): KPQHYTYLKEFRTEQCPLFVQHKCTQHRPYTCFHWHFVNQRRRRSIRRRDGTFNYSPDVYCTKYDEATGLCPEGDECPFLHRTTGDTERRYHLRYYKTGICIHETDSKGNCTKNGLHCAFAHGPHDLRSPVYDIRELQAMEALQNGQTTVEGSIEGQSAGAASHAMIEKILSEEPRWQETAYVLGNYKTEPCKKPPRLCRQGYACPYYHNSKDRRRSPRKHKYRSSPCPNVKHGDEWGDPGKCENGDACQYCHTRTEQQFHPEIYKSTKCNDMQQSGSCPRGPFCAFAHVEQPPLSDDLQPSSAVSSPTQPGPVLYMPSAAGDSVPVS

Block 1 — method: protein-binding microarray; form: double-stranded DNA, one strand shown; medium: in vitro; concentration: 250 nM; setting: 60-bp whole probe; added: salmon DNA 0.4 mg/ml; relative to: random background probes; direction: higher = stronger binding; quantity: log fluorescence; constant ends, left off below: GCCTAGCAC … GTCTTGATTCGCTTGACGCTGCTG
Target: Interferon regulatory factor 5, full length, phosphomimetic (IRF5, Homo sapiens, UniProt Q13568-2, residues 1-514, K96S/S451D/S453D/S456D/S462D)
TTAGAATTCAGTCTCGATTAGTGCTAG: 1.34 z-score
GACGATCTCAGTATCTAGACGTGCTAG: 0.0373 z-score
TTAGGTTTCCTACAGCTTTAGTGCTAG: 0.0935 z-score
GACGGTTTCCTTATCCTGACGTGCTAG: 0.83 z-score
TTAGGACTGCTAATGCTTTAGTGCTAG: -0.195 z-score
GACGATTTCAGACAGGAGACGTGCTAG: 0.132 z-score
GACGATTTCGGTTTCGGGACGTGCTAG: 9.16 z-score
TCATGCTTTCATTTATTACTGTGCTAG: 2.89 z-score
TCACATTGCCTGTTTTTCACTGTGCTA: 1.17 z-score
TCAAGTTTGACATCTTCAACTGTGCTA: -0.105 z-score
CTAGTTTCCATTTTCAGAATGTGCTAG: 2.91 z-score
TTAGGTATCGACTATCGGTCAGTGCTA: 7.59 z-score
TTAGGGCTGGGTATCGGTTAGTGCTAG: 3.83 z-score
GGCGATATCAGTTTCGAGACGTGCTAG: 6.75 z-score
GACGAACTGGGGTTCCGAGACGTGCTA: -0.484 z-score
TTAGGTCTCGGTCTAGGTTAGTGCTAG: 0.387 z-score
TTAGGACTGGACACCGGGTTAGTGCTA: -0.603 z-score
TCATATGTCTGTTTTTGACTGTGCTAG: 0.494 z-score
TTAGATTTCCGGTTTCGATTAGTGCTA: 8.4 z-score

Block 2 — method: RNA Bind-n-Seq; form: RNA; medium: in vitro; concentration: 365 nM; relative to: no-protein control; direction: higher = stronger binding; quantity: RBNS enrichment (R)
Target: RNA binding protein fox-1 homolog 2, RRM domain, GST-SBP tag (RBFOX2, Homo sapiens, UniProt O43251-10, residues 100-194)
Setting: natural RNA segment, single round, ends assumed
Constant ends, left off below: GGGAGUUCUACAGUCCGACGAUC … UGGAAUUCUCGGGUGCCAA
Target sequence (chain): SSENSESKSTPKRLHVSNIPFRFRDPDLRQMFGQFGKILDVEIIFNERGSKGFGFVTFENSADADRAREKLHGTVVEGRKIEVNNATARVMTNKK
UUAGCUACCAGCAAUUUCUGUAAACCAAGAGAAGAUUGUCACAAAGAUUCACUACUUUCCAACUGAAUCUAUGCAGUAGAAAAAUCAUUAGAAAAUACAAAAAUUAGCCG: 0.407
GCGUGCUGGGGCACCCUCCUGGCCAGGUGGUACUUUGGGGACUUGGGUGUUUGCAUCAUAAUGUCAUCUUGGGAAACAGAAAAGAAGGUGGGCCAACCCUCAUGUCCCCC: 1.03
UCUCAGGCUGGGGUGGACUCAGAUGCCAGGAAAGGGACAGCCUCCCAUUGUCAGGCAGAAGCUGCCCAAAGCCUGGAGAAGGACUUGUUUGCCCUCUUUCCCCCAGGAGG: 0.248
AAAGUCCCUAAUUCACAACCUCCUUGAUCUUAUGACCCUUGAAAACCUCAAGACCGAAGCCUGACCAUAAGUUGGAAAGCUCUCAUUACCCUCUUUAACAACAUAAAUUC: 0.655
UGUUGGCCAGAGGUAUCUGGGAGAACCUACCCUUUCUAGGAGUGGCUCCUGCCUGACUCUUCCUUCGUCGGAGAAAGGAAAAAACAGUGUUAAGUGACCUAGAAACUUGA: 0.387
ACGUGCAGUCCCUGGGCACGGCGGGCCCUGCCAUGUGCUGGUAACGCAUGCCUGGGCCCUGCUGGGCUCUCCCACUCCAGGCGGACCCUGGGGGCCAGUGAAGGAAGCUC: 0.19
GGGGCCAUGGACAUCUUGUGAGCCCUGCCCUCUGGCUGUAGUUGUCUGAGUGUGAGGGGUUUCAUUUCUAUGGCUAAUCCCCAAAGCUGUAACACAUAGGGCAGGUACCU: 0.257
GUGAUACAUACGUGUAUUACUCGAUCACUGGAUGUGGAAGUACCCAUUCAUCACAUCUGCCUCAUAGCCCCCAUCUUUGCUGUGCUGAUAGGAUUUAGUUGUGUUUAGGA: 0.267

Block 3 — method: universal PBM; form: double-stranded DNA, one strand shown; medium: in vitro; concentration: not given; direction: higher = stronger binding; quantity: E-score
Target: Sal-like protein 4, full length isoform B (SALL4, Homo sapiens, UniProt Q9UJQ4-2, residues 1-616)
Setting: 8-mer, flanks averaged, mean of replicates
Construct (chain): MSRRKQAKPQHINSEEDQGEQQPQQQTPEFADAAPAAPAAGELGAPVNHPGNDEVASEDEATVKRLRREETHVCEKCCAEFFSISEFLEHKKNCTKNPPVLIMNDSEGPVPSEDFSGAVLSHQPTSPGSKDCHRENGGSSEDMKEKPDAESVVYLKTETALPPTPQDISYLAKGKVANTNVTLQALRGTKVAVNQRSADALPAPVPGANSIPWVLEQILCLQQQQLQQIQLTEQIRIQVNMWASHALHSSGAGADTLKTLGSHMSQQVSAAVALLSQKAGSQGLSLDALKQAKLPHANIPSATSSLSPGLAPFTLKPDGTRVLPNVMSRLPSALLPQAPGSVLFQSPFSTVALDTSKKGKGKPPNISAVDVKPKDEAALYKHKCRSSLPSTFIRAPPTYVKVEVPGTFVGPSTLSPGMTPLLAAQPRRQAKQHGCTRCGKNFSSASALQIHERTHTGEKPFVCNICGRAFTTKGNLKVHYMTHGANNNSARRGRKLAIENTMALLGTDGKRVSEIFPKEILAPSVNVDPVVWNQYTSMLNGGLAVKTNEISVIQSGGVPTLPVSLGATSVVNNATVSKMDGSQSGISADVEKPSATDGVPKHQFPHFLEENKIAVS
AGTGGCCG: -0.328
AAGACTTC: -0.0404
GGCTACAA: -0.0603
CTCACCGC: -0.273
CGTTCGTC: -0.191
GTACGATA: 0.28
CCCGGTTC: -0.276
CACTTGCG: -0.205
AACACCGG: -0.112
GTGTACTA: 0.162
ATGCGCGC: -0.0482
GATGTCGC: -0.0757
ACCTACGG: -0.29
CGTGTCAC: -0.0349
TAAGGAGA: 0.0828
AAAAGAAC: 0.0672
CGGGTTAA: -0.0799
GTTTTATA: 0.278
CATTGCCC: -0.231

Block 4 — method: protein binding microarray; form: double-stranded DNA, one strand shown; medium: in vitro; concentration: not given; relative to: not given; direction: higher = stronger binding; quantity: E-score
Target: Histone acetyltransferase KAT6A, winged helix 2, GST fusion (KAT6A, Homo sapiens, UniProt Q92794, residues 85-181)
Setting: 8-mer, flanks averaged, mean of 2 arrays, mostly near background
Target sequence (chain): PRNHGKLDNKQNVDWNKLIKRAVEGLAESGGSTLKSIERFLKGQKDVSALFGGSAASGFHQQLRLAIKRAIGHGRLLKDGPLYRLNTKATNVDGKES
GAATTTAC: -0.00791
ATGCCGCG: 0.246
ACATCAGC: 0.075
AATGGCAA: 0.126
CCCCTCAG: -0.212
TATCTCGA: -0.128
GTCTGACA: -0.0562
GGTTCAAC: -0.0286
CTTTATCC: -0.0927
GAAACCGC: 0.133
ATGCATAA: -0.155
GACGATCA: -0.0976
GCTCAAAC: 0.154
ATCTGTGA: -0.0324
AATGATTA: 0.022
TCTGCCAA: -0.0999
AGTTCACC: 0.0926

Single results of other studies
GGGAGUUCUACAGUCCGACGAUCGUUGGGCCAUGACCCCUACCGAUCCGGUCAUGAUGCUUACAGGUCCGGACAAGACCCUUACCGAUCCGGCCAUGAUCCCUACAGACUAACUCCUGAUCCCUACCGGAUGUCACCCCGACCCAACAGAGGAUUGAGCAUCA — bound/input enrichment (RING finger protein unkempt homolog, zinc fingers 1-6, SBP tag (UNK, Homo sapiens, UniProt Q9C0B0, residues 30-357); RNA Bind-n-Seq; RNA, in vitro; 100 nM, RNA with constant flanks, ends assumed; relative to: input RNA pool, higher = stronger binding): 0.451 ratio

Some of these lines once more (block 3):
AGTGGCCG: -0.328
AAGACTTC: -0.0404
GGCTACAA: -0.0603
CTCACCGC: -0.273
CGTTCGTC: -0.191
GTACGATA: 0.28
CCCGGTTC: -0.276
